{"data": "Measurements collected from several papers", "note": "Each numbered part is a random draw from the data of one study; scales do not carry over between parts."}
{"data": "Set 1", "target": "RNA binding protein fox-1 homolog 2, RRM domain, GST-SBP tag (RBFOX2, Homo sapiens, UniProt O43251-10, residues 100-194)", "technique": "RNA Bind-n-Seq", "form": "RNA", "medium": "in vitro", "concentration": "365 nM", "notes": "natural RNA segment, single round, ends assumed", "baseline": "no-protein control", "direction": "higher = stronger binding", "Residues (chain)": "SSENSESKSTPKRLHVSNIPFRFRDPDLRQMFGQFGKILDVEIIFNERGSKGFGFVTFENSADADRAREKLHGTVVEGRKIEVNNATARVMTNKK"}
{"Sequence": "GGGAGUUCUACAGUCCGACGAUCAGGCCCCAAGCCAGGGGCAGUGAGGUCAUCUAGCAGUGACAGGAUCCCAUCAGGCUCCUUGGAAAGUGCUUCUACUUCCGAAGCCAACCCUGAGGGGCACUCAGCCAGCUUGGAAUUCUCGGGUGCCAA", "RBNS enrichment (R)": 0.234}
{"Sequence": "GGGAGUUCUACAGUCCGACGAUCGAAAUUUACAUAUCAAUGUUUCUACAGUAUUGUUUGCUAAUUUUUAAAUAAAGUCAUGAUCAGUGUGCAUUUGUGAUUAUAUGUGUACUCAUUCUCUUACCUAGCGAACAUGGAAUUCUCGGGUGCCAA", "RBNS enrichment (R)": 0.407}
{"Sequence": "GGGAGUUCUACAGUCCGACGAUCCCAGCAUCCCCAAACUGGUACUCCCUGACCCAGGGCCCCAAACCUGGGCUCUUACAGAGCCUCCAUGAGUCAAGCCCCCUCCCCACACCUGGACUCCAGAAUUCACCCUCUGGAAUUCUCGGGUGCCAA", "RBNS enrichment (R)": 0.472}
{"Sequence": "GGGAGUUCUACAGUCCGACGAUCCGCCUCCGCCUCAGCGCACGCCUCUGCCUCCUUCCUUCUCCAGCCUCGGCCCUCCCUUCCUUCCUCUGCCUGCUGGGCAGGGACCCACAGUGGCCAGCGGCCUUGGGGAGUGGAAUUCUCGGGUGCCAA", "RBNS enrichment (R)": 0.872}
{"Sequence": "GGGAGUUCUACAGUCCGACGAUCGCCAAGGUGUUUCCAUUUCUCAAUCAGUGCAGUGAUACAUGUACUCCAGAGGGACAGGGUGGACCCCCUGAGUCAACUGGAGCAAGAAGGAAGGAGGCAGACUGAUGGCGUGGAAUUCUCGGGUGCCAA", "RBNS enrichment (R)": 0.451}
{"Sequence": "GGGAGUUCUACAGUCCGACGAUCCAGUCUGUCCUGUGCUGUGUGACCUUGGACAAGGCGCUUCAUCUCUCUGGGCCUCUAUUUCUCCAUUUGUAAAACAAGUGGCUGCAGUAGAUGAUGGCUGAGAGCCCUUCUGGAAUUCUCGGGUGCCAA", "RBNS enrichment (R)": 0.23}
{"Sequence": "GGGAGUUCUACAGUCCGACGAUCCUUUCUGAUGAUUUAAACUUUGCAGUUUACUUUUUCAUCCUGUAUGAGAAGUACUAAGUAAGUUUAGGACAUUUGGGGUUCCUUUUUCCCUUCUAAAGUGAAAGUGAUGUUGGAAUUCUCGGGUGCCAA", "RBNS enrichment (R)": 0.304}
{"Sequence": "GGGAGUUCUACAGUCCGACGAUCGGGGUGCGUGGAGGAGAGGCCUGGGCUCCUCUACUGGAUCUACACUCUGUCCCAGGUUUUUAGAUCCCACUGAGCCCAGCUGACUGAAAACAAGGACAGUCAGGGUGAAAUGGAAUUCUCGGGUGCCAA", "RBNS enrichment (R)": 0.509}
{"Sequence": "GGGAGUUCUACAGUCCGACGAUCGGACAUUAAGGCGAUUGGAGUUAUACUUGGAAAAGAAAGUUCUGGCCACAGUACAGAGCAUGGCCCGUUGAGCUGUUGGGGGGGUUAUUGCUGCAACCAAGGCUUGAGUGUGGAAUUCUCGGGUGCCAA", "RBNS enrichment (R)": 1.07}
{"Sequence": "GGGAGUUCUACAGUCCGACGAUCCUUCUGUCUGACACCAUCUCCCUUUCGGCCUGAAGGUUUCAGAGAGGGUGCUCUGGGCUGGAGGGAGCAGGGACACUCUCAGCCAAAUGGAGCAGUGGGGAGACACCAGGUGGAAUUCUCGGGUGCCAA", "RBNS enrichment (R)": 0.561}
{"Sequence": "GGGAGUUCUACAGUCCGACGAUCUGUAUGAUGUACAUUUUAGUUCUUAACUUUUUUUUAUGGUUUCUAAUAUGUAUGACCAAUGUAGCCAUUGCUUUAAAAUGUACCGUGUAAAUAUAAACACAUCCUAUCAGUGGAAUUCUCGGGUGCCAA", "RBNS enrichment (R)": 6.12}
{"Sequence": "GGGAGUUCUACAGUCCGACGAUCUAAACAGGGAGUUAUGUGGUGCUUGUGGCGCUUUCAGAACCCAAAGAUUUGUAGUCUGGAAUCAUGUAGUCUCAUAUGCUGCACUUAUUUUUAUAUUUUUCAAUGCACUUUGGAAUUCUCGGGUGCCAA", "RBNS enrichment (R)": 10.8}
{"data": "Set 2", "target": "Prothrombin, mature alpha-thrombin (F2, Homo sapiens, UniProt P00734)", "technique": "aptamer microarray, sandwich", "form": "DNA with 2'F-ANA", "medium": "in vitro", "concentration": "200 nM", "notes": "whole 15-mer aptamer, many near background", "added": "Cy3 exosite-II aptamer, 400 nM", "direction": "higher = stronger binding", "sequence": "GGTTGGTGTGGTTGG"}
{"Modification": "2'F-ANA at 1 2 3 5 8 11 12 13", "mean fluorescence intensity [a.u.]": 80.3}
{"Modification": "2'F-ANA at 1 2 5 8 9 10 14 15", "mean fluorescence intensity [a.u.]": 52.5}
{"Modification": "2'F-ANA at 2 3 4 10 11 12", "mean fluorescence intensity [a.u.]": 348}
{"Modification": "2'F-ANA at 1 3 7 10 12 13 14 15", "mean fluorescence intensity [a.u.]": 102}
{"Modification": "2'F-ANA at 2 4 5 6 8 11 13 14", "mean fluorescence intensity [a.u.]": 44.8}
{"Modification": "2'F-ANA at 1 2 3 4 5 6 7 9 10 11 12 13 14", "mean fluorescence intensity [a.u.]": 49.7}
{"Modification": "2'F-ANA at 2 4 5 8 10 11 12 13 14 15", "mean fluorescence intensity [a.u.]": 47.7}
{"Modification": "2'F-ANA at 2 7 9 10 11 13 15", "mean fluorescence intensity [a.u.]": 98.5}
{"Modification": "2'F-ANA at 1 3 4 5 6 7 8 9 10 11 12 13 14 15", "mean fluorescence intensity [a.u.]": 60}
{"Modification": "2'F-ANA at 3 5 6 7 9 12 13 14", "mean fluorescence intensity [a.u.]": 60.9}
{"Modification": "2'F-ANA at 1 3 7 8 10 12 13", "mean fluorescence intensity [a.u.]": 107}
{"Modification": "2'F-ANA at 2 4 5 6 7 11 12 14", "mean fluorescence intensity [a.u.]": 85.7}
{"Modification": "2'F-ANA at 1 2 3 5 7 8 12 13 14", "mean fluorescence intensity [a.u.]": 47.2}
{"Modification": "2'F-ANA at 2 3 4 5 7 8 10 12 13 14 15", "mean fluorescence intensity [a.u.]": 50.6}
{"Modification": "2'F-ANA at 2 4 7 9 10 11 13 14 15", "mean fluorescence intensity [a.u.]": 63.1}
{"Modification": "2'F-ANA at 1 2 5 6 7 8 10 12", "mean fluorescence intensity [a.u.]": 51.1}
{"Modification": "2'F-ANA at 1 3 4 5 11 12 15", "mean fluorescence intensity [a.u.]": 87.2}
{"Modification": "2'F-ANA at 2 5 6 7 9 11 12", "mean fluorescence intensity [a.u.]": 207}
{"Modification": "2'F-ANA at 1 12 14 15", "mean fluorescence intensity [a.u.]": 75.7}
{"Modification": "2'F-ANA at 2 5 6 8 10 12 14", "mean fluorescence intensity [a.u.]": 51.2}
{"data": "Set 3", "target": "Histone acetyltransferase KAT6A, winged helix 1, GST fusion (KAT6A, Homo sapiens, UniProt Q92794, residues 1-85)", "technique": "protein binding microarray", "form": "double-stranded DNA, one strand shown", "medium": "in vitro", "concentration": "not given", "notes": "8-mer, flanks averaged, mean of 2 arrays, mostly near background", "baseline": "not given", "direction": "higher = stronger binding", "Residues (chain)": "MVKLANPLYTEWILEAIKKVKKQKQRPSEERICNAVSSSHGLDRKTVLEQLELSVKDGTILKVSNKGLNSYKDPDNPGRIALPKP"}
{"Sequence": "GGGCACTA", "E-score": 0.144}
{"Sequence": "AGCTTTAT", "E-score": -0.148}
{"Sequence": "AGGAGGAT", "E-score": -0.152}
{"Sequence": "TAACGCAA", "E-score": 0.16}
{"Sequence": "ATACCTAA", "E-score": -0.216}
{"Sequence": "ACCCTCTA", "E-score": -0.0512}
{"Sequence": "TTGGACAA", "E-score": -0.0909}
{"Sequence": "CCTAGTTA", "E-score": -0.076}
{"Sequence": "TGGATACA", "E-score": -0.24}
{"Sequence": "AGATTTTG", "E-score": -0.158}
{"Sequence": "ATTAGTCG", "E-score": -0.0988}
{"Sequence": "GCTATGCA", "E-score": -0.0568}
{"Sequence": "CGGAAATA", "E-score": 0.103}
{"Sequence": "CTATTCTC", "E-score": 0.0157}
{"Sequence": "CACCTAGA", "E-score": -0.23}
{"Sequence": "GACGACCC", "E-score": 0.0747}
{"Sequence": "TCAGTCAA", "E-score": -0.21}
{"Sequence": "TAACGGTA", "E-score": 0.0491}
{"Sequence": "AAAGCGGC", "E-score": 0.385}
{"Sequence": "AAGAGGGA", "E-score": -0.195}
{"Sequence": "AAACCGCG", "E-score": 0.317}
{"Sequence": "GGTTGACA", "E-score": -0.0182}
{"Sequence": "AACCATGC", "E-score": 0.0107}
{"Sequence": "GACAACGA", "E-score": -0.0984}
{"Sequence": "ATGGTGGA", "E-score": -0.193}
{"data": "Set 4", "target": "POU domain, class 5, transcription factor 1, POU domain (Pou5f1, Mus musculus, UniProt P20263, residues 131-289)", "technique": "Spec-seq", "form": "double-stranded DNA, one strand shown", "medium": "in vitro", "concentration": "not given", "notes": "whole probe, mean of replicates", "baseline": "not given", "direction": "lower = stronger binding", "all sequences stand within": "GAGTCGTCTCGTCAGCAC … CCGTAGAGCACTCAGGTC", "chain of UniProt P20263 (131-289, looked up)": "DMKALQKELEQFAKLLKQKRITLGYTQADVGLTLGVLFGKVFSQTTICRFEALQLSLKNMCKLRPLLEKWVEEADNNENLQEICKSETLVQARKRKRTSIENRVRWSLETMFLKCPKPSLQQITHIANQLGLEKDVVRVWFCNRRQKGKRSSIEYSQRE"}
{"Sequence": "CCCATAAT", "relative binding energy": "0.132 ln ratio"}
{"Sequence": "ATGATCAT", "relative binding energy": "0.426 ln ratio"}
{"Sequence": "ATGCGGCG", "relative binding energy": "0.693 ln ratio"}
{"Sequence": "ATGCTCCT", "relative binding energy": "0.555 ln ratio"}
{"Sequence": "ATATTTAT", "relative binding energy": "-0.628 ln ratio"}
{"Sequence": "ATGCGAGT", "relative binding energy": "0.362 ln ratio"}
{"Sequence": "ATGCTCAC", "relative binding energy": "0.459 ln ratio"}
{"Sequence": "ATACTCAT", "relative binding energy": "0.207 ln ratio"}
{"Sequence": "AGTCTAAT", "relative binding energy": "0.621 ln ratio"}
{"Sequence": "ATCTCCAT", "relative binding energy": "-0.912 ln ratio"}
{"Sequence": "ATCGTCAT", "relative binding energy": "0.566 ln ratio"}
{"Sequence": "ATCTTTAT", "relative binding energy": "0.403 ln ratio"}
{"Sequence": "GGCTTAAT", "relative binding energy": "0.639 ln ratio"}
{"Sequence": "GCCATAAT", "relative binding energy": "0.611 ln ratio"}
{"Sequence": "TCGTTAAT", "relative binding energy": "0.267 ln ratio"}
{"Sequence": "GTTATAAT", "relative binding energy": "0.374 ln ratio"}
{"Sequence": "ATTCAGAT", "relative binding energy": "-0.236 ln ratio"}
{"Sequence": "ATCGACAT", "relative binding energy": "0.475 ln ratio"}
{"Sequence": "CGCGTAAT", "relative binding energy": "0.641 ln ratio"}
{"Sequence": "ATCTCAAT", "relative binding energy": "-0.156 ln ratio"}
{"Sequence": "ATCTACAT", "relative binding energy": "-1.68 ln ratio"}
{"Sequence": "CTCCTAAT", "relative binding energy": "0.856 ln ratio"}
{"Sequence": "ATGCCTGA", "relative binding energy": "0.8 ln ratio"}
{"Sequence": "ACTCTAAT", "relative binding energy": "0.493 ln ratio"}
{"Sequence": "CCTATAAT", "relative binding energy": "0.709 ln ratio"}
{"note": "Repeated from above (set 3):"}
{"Sequence": "AAGAGGGA", "E-score": -0.195}
{"Sequence": "CCTAGTTA", "E-score": -0.076}
{"Sequence": "ATTAGTCG", "E-score": -0.0988}
{"Sequence": "AGGAGGAT", "E-score": -0.152}
{"Sequence": "AGCTTTAT", "E-score": -0.148}
{"Sequence": "ATACCTAA", "E-score": -0.216}
{"Sequence": "GGTTGACA", "E-score": -0.0182}
{"Sequence": "CGGAAATA", "E-score": 0.103}
{"Sequence": "AACCATGC", "E-score": 0.0107}
{"Sequence": "TCAGTCAA", "E-score": -0.21}
{"Sequence": "AGATTTTG", "E-score": -0.158}
{"Sequence": "CACCTAGA", "E-score": -0.23}
